Results from different studies.
Compare with care: the assays were run in different laboratories. “And” joins repeats or separate records; there may be more than shown. Numbers after ± are the reported error.
Polyprotein P1234 nsP2 protease domain: Polyprotein P1234, nsP2 protease domain (Chikungunya virus, UniProt Q8JUX6)
UniProt Q8JUX6, sequence (whole entry, looked up): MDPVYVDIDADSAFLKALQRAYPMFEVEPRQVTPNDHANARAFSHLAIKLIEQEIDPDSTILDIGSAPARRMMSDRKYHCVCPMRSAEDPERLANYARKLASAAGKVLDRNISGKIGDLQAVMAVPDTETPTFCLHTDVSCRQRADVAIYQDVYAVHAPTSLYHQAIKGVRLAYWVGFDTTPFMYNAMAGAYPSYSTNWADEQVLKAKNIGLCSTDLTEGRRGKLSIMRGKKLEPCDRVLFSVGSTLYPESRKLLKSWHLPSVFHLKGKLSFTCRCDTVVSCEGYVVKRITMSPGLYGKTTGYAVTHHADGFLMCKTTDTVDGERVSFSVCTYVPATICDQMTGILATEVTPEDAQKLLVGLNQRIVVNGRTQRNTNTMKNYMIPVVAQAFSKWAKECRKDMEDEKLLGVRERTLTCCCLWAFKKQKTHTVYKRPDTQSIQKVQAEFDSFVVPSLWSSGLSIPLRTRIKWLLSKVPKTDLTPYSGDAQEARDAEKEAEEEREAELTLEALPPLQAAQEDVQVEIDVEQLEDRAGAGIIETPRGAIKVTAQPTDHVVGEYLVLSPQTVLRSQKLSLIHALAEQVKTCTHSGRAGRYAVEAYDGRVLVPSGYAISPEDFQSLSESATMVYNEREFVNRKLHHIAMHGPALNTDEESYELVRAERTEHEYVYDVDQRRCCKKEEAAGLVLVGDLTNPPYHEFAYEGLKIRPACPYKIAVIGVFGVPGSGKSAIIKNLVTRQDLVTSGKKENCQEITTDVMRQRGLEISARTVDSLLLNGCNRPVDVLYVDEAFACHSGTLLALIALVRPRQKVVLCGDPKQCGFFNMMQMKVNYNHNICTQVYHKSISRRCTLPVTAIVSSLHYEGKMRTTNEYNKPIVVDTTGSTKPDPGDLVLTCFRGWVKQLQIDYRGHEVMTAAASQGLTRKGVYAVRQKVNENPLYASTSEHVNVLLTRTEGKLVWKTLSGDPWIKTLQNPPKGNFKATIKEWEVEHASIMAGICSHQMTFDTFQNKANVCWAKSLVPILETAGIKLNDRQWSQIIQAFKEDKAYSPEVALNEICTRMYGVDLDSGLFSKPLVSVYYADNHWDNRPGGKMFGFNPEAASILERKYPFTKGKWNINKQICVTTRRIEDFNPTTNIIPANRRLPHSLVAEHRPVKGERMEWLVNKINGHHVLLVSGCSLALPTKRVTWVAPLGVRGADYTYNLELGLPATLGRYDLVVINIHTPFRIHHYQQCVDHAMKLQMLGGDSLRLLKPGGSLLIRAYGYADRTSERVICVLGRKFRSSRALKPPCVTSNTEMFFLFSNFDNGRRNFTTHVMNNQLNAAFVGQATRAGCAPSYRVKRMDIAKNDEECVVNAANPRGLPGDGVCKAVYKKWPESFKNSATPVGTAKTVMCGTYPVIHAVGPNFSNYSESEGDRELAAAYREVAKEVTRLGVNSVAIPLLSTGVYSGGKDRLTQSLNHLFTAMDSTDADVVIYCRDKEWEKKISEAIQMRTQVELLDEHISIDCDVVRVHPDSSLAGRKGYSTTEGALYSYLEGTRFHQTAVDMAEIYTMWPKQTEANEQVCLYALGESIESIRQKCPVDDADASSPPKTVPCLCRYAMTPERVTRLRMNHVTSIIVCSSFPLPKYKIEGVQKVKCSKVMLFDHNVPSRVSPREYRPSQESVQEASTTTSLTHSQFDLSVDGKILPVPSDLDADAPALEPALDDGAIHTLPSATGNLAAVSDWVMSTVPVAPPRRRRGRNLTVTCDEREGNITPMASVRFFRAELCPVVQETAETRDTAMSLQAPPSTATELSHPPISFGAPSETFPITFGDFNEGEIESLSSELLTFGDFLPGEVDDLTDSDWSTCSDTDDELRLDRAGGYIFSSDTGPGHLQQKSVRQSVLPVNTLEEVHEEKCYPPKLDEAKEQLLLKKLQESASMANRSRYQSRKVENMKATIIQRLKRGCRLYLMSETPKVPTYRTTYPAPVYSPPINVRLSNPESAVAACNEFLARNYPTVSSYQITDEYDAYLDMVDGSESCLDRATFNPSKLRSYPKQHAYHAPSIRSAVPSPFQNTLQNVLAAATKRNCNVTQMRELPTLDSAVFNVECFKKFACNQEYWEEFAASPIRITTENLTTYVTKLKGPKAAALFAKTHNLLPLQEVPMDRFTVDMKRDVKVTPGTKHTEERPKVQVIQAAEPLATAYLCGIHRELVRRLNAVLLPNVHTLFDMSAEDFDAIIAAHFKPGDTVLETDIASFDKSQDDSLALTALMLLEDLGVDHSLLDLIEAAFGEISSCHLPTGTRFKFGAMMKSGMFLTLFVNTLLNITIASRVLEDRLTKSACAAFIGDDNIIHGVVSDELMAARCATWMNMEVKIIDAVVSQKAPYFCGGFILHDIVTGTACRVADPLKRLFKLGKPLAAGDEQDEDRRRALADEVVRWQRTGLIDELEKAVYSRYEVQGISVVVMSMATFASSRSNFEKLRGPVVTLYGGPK
UniProt P08603, sequence (whole entry, unmodified, looked up): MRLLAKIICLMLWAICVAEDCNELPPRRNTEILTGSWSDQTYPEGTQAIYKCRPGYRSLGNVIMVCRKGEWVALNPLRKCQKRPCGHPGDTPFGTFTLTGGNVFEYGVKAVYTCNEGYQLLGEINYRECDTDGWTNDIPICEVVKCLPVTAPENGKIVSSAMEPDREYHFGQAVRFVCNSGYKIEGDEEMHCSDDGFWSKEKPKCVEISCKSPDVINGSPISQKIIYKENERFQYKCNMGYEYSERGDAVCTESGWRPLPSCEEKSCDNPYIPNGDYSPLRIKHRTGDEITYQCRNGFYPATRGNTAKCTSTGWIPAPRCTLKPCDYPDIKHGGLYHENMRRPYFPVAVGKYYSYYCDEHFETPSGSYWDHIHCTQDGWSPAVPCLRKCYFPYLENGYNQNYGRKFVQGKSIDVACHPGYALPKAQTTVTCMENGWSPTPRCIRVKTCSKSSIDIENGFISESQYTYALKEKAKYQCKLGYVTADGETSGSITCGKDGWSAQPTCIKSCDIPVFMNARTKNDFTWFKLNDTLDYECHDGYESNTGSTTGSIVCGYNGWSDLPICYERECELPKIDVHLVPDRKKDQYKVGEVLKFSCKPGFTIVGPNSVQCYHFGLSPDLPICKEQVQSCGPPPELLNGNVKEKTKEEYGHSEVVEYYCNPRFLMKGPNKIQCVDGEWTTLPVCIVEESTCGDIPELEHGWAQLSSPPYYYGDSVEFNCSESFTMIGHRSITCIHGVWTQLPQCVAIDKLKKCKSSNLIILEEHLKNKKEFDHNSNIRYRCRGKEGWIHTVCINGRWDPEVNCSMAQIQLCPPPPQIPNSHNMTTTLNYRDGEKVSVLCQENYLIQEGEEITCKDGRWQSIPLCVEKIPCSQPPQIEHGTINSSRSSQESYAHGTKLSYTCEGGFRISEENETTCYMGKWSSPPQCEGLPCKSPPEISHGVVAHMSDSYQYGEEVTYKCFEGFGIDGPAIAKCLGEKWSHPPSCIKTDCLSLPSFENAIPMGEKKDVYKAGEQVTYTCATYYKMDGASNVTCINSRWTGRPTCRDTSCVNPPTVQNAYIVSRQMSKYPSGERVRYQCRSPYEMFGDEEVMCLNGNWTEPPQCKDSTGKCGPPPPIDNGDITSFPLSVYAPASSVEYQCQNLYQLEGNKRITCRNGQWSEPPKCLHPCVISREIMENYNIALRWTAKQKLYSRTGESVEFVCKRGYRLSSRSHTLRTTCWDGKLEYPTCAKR

Molecule | tested on | test | system | conditions | how to read | endpoint | result
MEASGVNYQNMNKQTT | Polyprotein P1234 nsP2 protease domain | binding, phage display | peptide |  | direction not given | enrichment score | 34
CC(C)C(=O)OC[C@@]1(F)O[C@@H](n2cnc(-c3cnc[nH]c3=O)c2)[C@H](OC(=O)C(C)C)[C@@H]1OC(=O)C(C)C | Zaire ebolavirus | viral replication, reporter virus | Huh-7 | 72 h |  | IC50 | 75.3 µM
CNC(=O)C(C#N)(Cc1cc(Cl)cc2c1OCOC2)Cc1cc(Cl)cc2c1OCOC2 | MERS-CoV spike VSV pseudovirus | pseudovirus entry |  | 10 µM |  | inhibition | 93%
cbpA fragment (Streptococcus pneumoniae) | CFH 508-567 Y547A (Homo sapiens, UniProt P08603) | ITC |  |  |  | ΔH | -2.04 ± 0.2 kcal/mol
COc1cc2ncnc(Nc3cccc(Cl)c3)c2cc1OC | Monkeypox virus | viral infection | replication-deficient | 100 µM | reference: untreated | infection | 0.63% and 0.37% and 0.14%
inositol hexakisphosphate | Toxin B (tcdB, Clostridioides difficile, UniProt P18177) | toxin autoprocessing, activator |  |  |  | EC50 | 0.18 ± 0.02 µM
CC(C)C(=O)OC[C@@]1(F)O[C@@H](n2cnc(-c3cnc(=O)[nH]c3)c2)[C@H](OC(=O)C(C)C)[C@@H]1OC(=O)C(C)C | Zaire ebolavirus | viral replication, reporter virus | Huh-7 | 72 h |  | IC50 | 87.6 µM
FTMSPPLQMPSKNY | Polyprotein P1234 nsP2 protease domain | binding, phage display | peptide |  | direction not given | enrichment score | 287
